Measured values gathered from unrelated publications.
Every numbered part comes from another study and shows a few of its results, in no order. Numbers after ± are the reported error. ≈ marks a conversion by molar mass, not a printed value.
Sequence of UniProt P26769 (whole entry, looked up): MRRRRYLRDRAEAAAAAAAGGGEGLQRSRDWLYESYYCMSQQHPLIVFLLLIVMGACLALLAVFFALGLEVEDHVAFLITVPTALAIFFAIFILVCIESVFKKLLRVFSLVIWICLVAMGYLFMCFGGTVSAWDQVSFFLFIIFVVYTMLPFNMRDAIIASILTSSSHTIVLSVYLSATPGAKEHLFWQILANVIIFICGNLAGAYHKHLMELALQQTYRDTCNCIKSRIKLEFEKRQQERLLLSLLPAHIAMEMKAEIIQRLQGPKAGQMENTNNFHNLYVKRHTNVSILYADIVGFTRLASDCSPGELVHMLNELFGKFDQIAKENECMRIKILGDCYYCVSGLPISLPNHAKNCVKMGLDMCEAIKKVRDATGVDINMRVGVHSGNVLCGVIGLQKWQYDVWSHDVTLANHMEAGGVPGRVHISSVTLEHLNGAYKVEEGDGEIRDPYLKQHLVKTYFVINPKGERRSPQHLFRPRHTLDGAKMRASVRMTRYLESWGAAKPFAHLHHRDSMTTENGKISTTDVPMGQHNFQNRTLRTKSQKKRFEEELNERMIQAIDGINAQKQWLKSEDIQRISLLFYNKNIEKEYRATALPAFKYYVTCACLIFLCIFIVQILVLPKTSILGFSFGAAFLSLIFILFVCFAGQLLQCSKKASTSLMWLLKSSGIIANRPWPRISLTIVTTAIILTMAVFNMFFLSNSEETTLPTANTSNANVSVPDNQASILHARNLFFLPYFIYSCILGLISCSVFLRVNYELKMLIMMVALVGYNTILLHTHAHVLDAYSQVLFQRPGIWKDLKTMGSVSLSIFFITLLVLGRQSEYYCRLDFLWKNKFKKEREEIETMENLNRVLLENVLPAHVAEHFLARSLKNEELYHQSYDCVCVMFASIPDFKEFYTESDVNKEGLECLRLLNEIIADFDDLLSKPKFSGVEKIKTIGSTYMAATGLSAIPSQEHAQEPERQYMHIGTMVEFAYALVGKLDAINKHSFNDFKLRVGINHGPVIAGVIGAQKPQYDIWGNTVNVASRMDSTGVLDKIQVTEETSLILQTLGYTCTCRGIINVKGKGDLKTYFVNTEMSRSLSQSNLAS
Sequence of UniProt P32238 (whole entry, looked up): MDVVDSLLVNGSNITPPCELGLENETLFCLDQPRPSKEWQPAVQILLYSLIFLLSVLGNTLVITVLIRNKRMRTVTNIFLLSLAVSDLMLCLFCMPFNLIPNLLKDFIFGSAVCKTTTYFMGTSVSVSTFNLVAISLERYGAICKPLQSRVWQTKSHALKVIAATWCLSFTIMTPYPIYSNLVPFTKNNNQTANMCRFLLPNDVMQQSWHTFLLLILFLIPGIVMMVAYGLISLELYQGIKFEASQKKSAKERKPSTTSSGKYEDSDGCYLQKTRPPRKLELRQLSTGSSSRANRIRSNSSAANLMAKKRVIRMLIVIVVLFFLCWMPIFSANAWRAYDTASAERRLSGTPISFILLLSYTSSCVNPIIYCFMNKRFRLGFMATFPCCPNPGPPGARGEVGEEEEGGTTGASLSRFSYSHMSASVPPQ
Sequence of UniProt P30803 (whole entry, looked up): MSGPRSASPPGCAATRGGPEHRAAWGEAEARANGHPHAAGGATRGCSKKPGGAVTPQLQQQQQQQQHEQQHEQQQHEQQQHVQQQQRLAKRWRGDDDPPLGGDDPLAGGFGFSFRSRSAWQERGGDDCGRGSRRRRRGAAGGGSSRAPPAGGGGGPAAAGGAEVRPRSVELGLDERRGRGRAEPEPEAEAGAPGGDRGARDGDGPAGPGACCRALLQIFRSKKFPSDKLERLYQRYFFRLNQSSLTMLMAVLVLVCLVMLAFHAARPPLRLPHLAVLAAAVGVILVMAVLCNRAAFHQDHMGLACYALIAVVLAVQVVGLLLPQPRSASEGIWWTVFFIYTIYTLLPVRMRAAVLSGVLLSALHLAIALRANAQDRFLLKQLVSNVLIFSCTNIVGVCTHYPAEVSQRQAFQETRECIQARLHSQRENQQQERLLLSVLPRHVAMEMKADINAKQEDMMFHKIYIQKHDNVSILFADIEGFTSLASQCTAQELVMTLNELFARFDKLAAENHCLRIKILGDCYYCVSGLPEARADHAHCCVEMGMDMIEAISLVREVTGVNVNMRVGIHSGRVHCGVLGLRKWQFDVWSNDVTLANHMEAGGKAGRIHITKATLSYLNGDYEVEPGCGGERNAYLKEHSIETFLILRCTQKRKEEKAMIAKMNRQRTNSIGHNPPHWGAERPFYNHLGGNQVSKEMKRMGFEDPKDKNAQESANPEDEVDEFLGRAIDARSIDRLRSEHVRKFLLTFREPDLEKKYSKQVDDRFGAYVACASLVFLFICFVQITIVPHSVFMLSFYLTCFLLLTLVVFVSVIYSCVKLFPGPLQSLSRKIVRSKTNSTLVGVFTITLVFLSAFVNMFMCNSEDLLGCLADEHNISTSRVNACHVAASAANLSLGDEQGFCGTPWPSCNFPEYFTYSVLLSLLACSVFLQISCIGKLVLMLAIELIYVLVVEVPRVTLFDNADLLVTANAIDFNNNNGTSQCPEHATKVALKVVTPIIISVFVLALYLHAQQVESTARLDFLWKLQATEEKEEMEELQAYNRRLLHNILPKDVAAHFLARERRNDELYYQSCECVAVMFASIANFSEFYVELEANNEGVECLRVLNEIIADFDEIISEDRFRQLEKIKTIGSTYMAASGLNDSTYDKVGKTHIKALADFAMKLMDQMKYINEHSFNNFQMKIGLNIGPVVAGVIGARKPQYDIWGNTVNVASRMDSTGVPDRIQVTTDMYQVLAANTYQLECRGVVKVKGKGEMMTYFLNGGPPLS

Block 1
SMILES: CC[C@H](C)[C@H](NC(=O)[C@H](C)NC(=O)[C@H](CCC(=O)O)NC(=O)[C@H](Cc1c[nH]cn1)NC(=O)[C@@H](NC(=O)[C@H](CCCCN)NC(=O)[C@H](CCC(N)=O)NC(=O)[C@H](Cc1ccccc1)NC(=O)[C@@H](NC(=O)[C@H](CCCCN)NC(=O)[C@H](CCCCN)NC(=O)[C@H](CC(C)C)NC(=O)[C@H](C)NC(=O)[C@H](CC(N)=O)NC(=O)[C@@H](N)CC(C)C)C(C)C)[C@@H](C)CC)C(=O)N[C@@H](CCCCN)C(N)=O
Time: 18 h
Temperature: 37 °C
organism | technique | strain | MIC [µM]
Escherichia coli |  | CCARM 1238, resistant | 4 (≈ 7.52 µg/mL)
Acinetobacter baumannii | broth microdilution | ATCC 19606 | 4 (≈ 7.52 µg/mL)
Bacillus subtilis |  | KCTC 1998 | 4 (≈ 7.52 µg/mL)
Staphylococcus aureus | broth microdilution | ATCC 25923 | 4 (≈ 7.52 µg/mL)
Pseudomonas aeruginosa |  | 4007, resistant | 4 (≈ 7.52 µg/mL)
Staphylococcus aureus |  | MW2, resistant | 4 (≈ 7.52 µg/mL)

Other studies, line by line
MAOA: Amine oxidase [flavin-containing] A (MAOA, Homo sapiens, UniProt P21397)
Sequence of UniProt P21397 (whole entry, looked up): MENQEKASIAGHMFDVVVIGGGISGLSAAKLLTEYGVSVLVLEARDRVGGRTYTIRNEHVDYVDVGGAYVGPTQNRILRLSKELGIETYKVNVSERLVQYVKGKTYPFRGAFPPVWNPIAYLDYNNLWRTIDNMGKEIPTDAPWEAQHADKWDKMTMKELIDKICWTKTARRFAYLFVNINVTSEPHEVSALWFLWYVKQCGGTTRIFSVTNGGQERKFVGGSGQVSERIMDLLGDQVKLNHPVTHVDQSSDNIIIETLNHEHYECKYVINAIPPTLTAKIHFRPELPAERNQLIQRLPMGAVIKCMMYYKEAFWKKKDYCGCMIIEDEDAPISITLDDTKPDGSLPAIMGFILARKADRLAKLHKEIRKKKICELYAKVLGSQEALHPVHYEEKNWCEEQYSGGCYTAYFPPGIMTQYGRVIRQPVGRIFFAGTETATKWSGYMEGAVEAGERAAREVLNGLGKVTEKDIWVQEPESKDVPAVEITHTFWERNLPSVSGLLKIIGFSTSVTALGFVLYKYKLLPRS
Compound | tested on | assay | conditions | endpoint | result
CC1=CC(=O)[C@@H](O)[C@]2(C)[C@H]3[C@@H](O)[C@H](O)[C@@]4(C)OC[C@@]35[C@@H](C[C@@H]12)OC(=O)[C@H](O)[C@]54O | human cells |  | 48 (unit not given) | CC50 | 380 nM
CNc1ccccc1C(=O)O[C@H]1[C@@H](O)[C@H](n2cnc3c(N)ncnc32)O[C@@H]1COP(=O)(O)OP(=O)(O)O | Adcy2/ADCY5, C1/C2 domains (Rattus norvegicus, UniProt P26769+P30803) | adenylyl cyclase activity, inhibitor | together with: Mn2+ forskolin | Ki | 2400 ± 110 nM
NC1CC1c1ccc(NC(=O)c2cccc3ccccc23)cc1 (stereo not drawn) | MAOA | enzyme activity, inhibitor, HRP-coupled | 100 µM, together with: kynuramine substrate | inhibition | 96%
C[C@@H]1O[C@@H](n2c3ccccc3c3c4c(c5c6ccccc6[nH]c5c32)CNC4=O)C[C@@H](N)[C@H]1O | Calu-3 | cytotoxicity, PrestoBlue | 48 h | CC50 | > 100000 nM
NC1CC1c1ccc(NC(=O)Cc2ccccc2)cc1 (stereo not drawn) | MAOA | enzyme activity, inhibitor, HRP-coupled | 100 µM, together with: kynuramine substrate | inhibition | 96%
CCCCCc1cc(O)c2c(c1)OC(C)(C)[C@@H]1CCC(C)=C[C@@H]21 | Cholecystokinin receptor type A (CCKAR, Homo sapiens, UniProt P32238) | binding | 1 µM | inhibition | 40%

Repeated from above (block 1):
organism | technique | strain | MIC [µM]
Escherichia coli |  | CCARM 1238, resistant | 4 (≈ 7.52 µg/mL)
